Results from different studies.
Lines come from different studies, so protocols differ. Numbers after ± are the reported error.

`N=C(N)NCCC[C@@H]1NC(=O)[C@H](CCCCNC(=O)CCOCCOCCOCCOCCNC(=O)CC[C@H](NC(=O)CCOCCOCCOCCOCCNC(=O)[C@H](CCCCNC(=O)c2ccc(NN)nc2)NC(=O)c2ccc(NN)nc2)C(=O)NCCOCCOCCOCCOCCC(=O)NCCCC[C@@H]2NC(=O)[C@@H](Cc3ccccc3)NC(=O)[C@H](CC(=O)O)NC(=O)CNC(=O)[C@H](CCCNC(=N)N)NC2=O)NC(=O)[C@@H](Cc2ccccc2)NC(=O)[C@H](CC(=O)O)NC(=O)CNC1=O` [technetium-99m labelled] gave a tissue uptake of 2.68 ± 0.4 %ID/g (female athymic nude mice, lungs; intravenous, 0.1 MBq, 1 h, U-87 MG glioma xenograft).
`CSCC[C@H](NC(=O)[C@H](CC(C)C)NC(=O)[C@H](Cc1c[nH]cn1)NC(=O)CNC(=O)[C@@H](NC(=O)[C@H](C)NC(=O)[C@H](Cc1c[nH]c2ccccc12)NC(=O)[C@H](CCC(N)=O)NC(=O)CCCCCCCNC(=O)CCC(=O)Nc1ccc(CNC23CNCCNCC(N)(CNCCNC2)CNCCNC3)cc1)C(C)C)C(N)=O` [copper-64 labelled] has a tissue uptake of 0.095 ± 0.017 %ID/g (female SCID mice, PC-3 xenograft, muscle; intravenous, 0.6 MBq, 24 h).
The tissue uptake of `CC(C)C[C@H](NC(=O)[C@H](Cc1ccc(O)cc1)NC(=O)[C@@H](CCCNC(=N)N)NC(=O)[C@@H](CO)NC(=O)[C@H](Cc1ccccc1)NC(=O)[C@H](CC1CCCCC1)NC(=O)[C@H](CC(=O)O)NC(=O)CCC(C(=O)O)N1CCCN2CCN(CCCN(CC(=O)O)CC2)CC1)C(=O)N[C@@H](Cc1c[nH]c2ccccc12)C(=O)N[C@@H](CO)C(=O)O` (stereo partly shown) [copper-64 labelled] is reported as 0.1 ± 0.1 %ID/g (female NMRI nude mice, muscle; 22 h p.i.).
With `N=C(N)NCCC[C@@H]1NC(=O)[C@H](CC(=O)NC23CNCCNCC(N)(CNCCNC2)CNCCNC3)NC(=O)[C@@H](Cc2ccccc2)NC(=O)[C@H](CC(=O)O)NC(=O)CNC1=O` [copper-64 labelled] the tissue uptake was 5.58 ± 1.62 %ID/g (male nude tumour-bearing mice, kidney; iv, 10 µCi, 1 h).
With `N=C(N)NCCC[C@H](NC(=O)[C@H](CCCCN)NC(=O)[C@H](CCC(N)=O)NC(=O)CCOCCOCCOCCNC(=O)CN1CCN(CC(=O)O)CCN(CC(=O)O)CCN(CC(=O)O)CC1)C(=O)N[C@@H](CCCCN)C(=O)N[C@@H](CCCNC(=N)N)C(=O)N[C@@H](CCCCN)C(=O)N[C@@H](CCCCN)C(=O)N[C@@H](CO)C(=O)N[C@@H](CCCNC(=N)N)C(=O)N[C@@H](Cc1ccc(O)cc1)C(=O)N[C@@H](CCCCN)C(=O)N[C@@H](CO)C(=O)O` [copper-64 labelled] the tissue uptake was 1.78 ± 0.11 %ID/g (male C57BL/6 mice, B16-F10 tumour, bone; intravenous, 60 min).
`N=C(N)NCCC[C@@H]1NC(=O)[C@H](CCCCNC(=O)CC[C@H](NC(=O)CCOCCOCCOCCOCCNC(=O)CN2CCN(CC(=O)O)CCN(CC(=O)O)CCN(CC(=O)O)CC2)C(=O)NCCCC[C@@H]2NC(=O)[C@@H](Cc3ccccc3)NC(=O)[C@H](CC(=O)O)NC(=O)CNC(=O)[C@H](CCCNC(=N)N)NC2=O)NC(=O)[C@@H](Cc2ccccc2)NC(=O)[C@H](CC(=O)O)NC(=O)CNC1=O` [indium-111 labelled] gave a tissue uptake of 1.12 ± 0.14 %ID/g (female athymic nude mice, bone; intravenous, 3 µCi, 1 h, U-87 MG glioma xenograft).
The tissue uptake of `CSCC[C@H](NC(=O)[C@H](CC(=O)O)NC(=O)[C@H](CO)NC(=O)[C@H](Cc1c[nH]cn1)NC(=O)[C@H](Cc1c[nH]c2ccccc12)NC(=O)CN1CCN(CC(=O)O)CCN(CC(=O)O)CCN(CC(=O)O)CC1)C(=O)N[C@@H](CCC(=O)O)C(=O)N[C@@H](Cc1c[nH]c2ccccc12)C(=O)N[C@@H](Cc1c[nH]c2ccccc12)C(=O)N[C@@H](Cc1ccc(O)cc1)C(=O)N[C@@H](CC(C)C)C(=O)N[C@@H](CC(C)C)C(=O)NCC(=O)N[C@@H](CCCCNC(=O)COCCOCCNC(=O)CCN1C(=O)C=CC1=O)C(=O)O` [copper-64 labelled] is reported as 1.27 %ID/g (gamma counting; nude mice bearing BGC-823 tumours, BGC-823 tumour; intravenous, 0.74 MBq (0.02 nmol), 4 h).
For `N=C(N)NCCC[C@@H]1NC(=O)[C@H](CCCCNC(=O)CCOCCOCCOCCOCCNC(=O)CC[C@H](NC(=O)CCOCCOCCOCCOCCNC(=O)CC[C@H](NC(=O)CN2CCN(CC(=O)O)CCN(CC(=O)O)CCN(CC(=O)O)CC2)C(=O)NCCOCCOCCOCCOCCC(=O)N[C@@H](CCC(=O)NCCOCCOCCOCCOCCC(=O)NCCCC[C@@H]2NC(=O)[C@@H](Cc3ccccc3)NC(=O)[C@H](CC(=O)O)NC(=O)CNC(=O)[C@H](CCCNC(=N)N)NC2=O)C(=O)NCCOCCOCCOCCOCCC(=O)NCCCC[C@@H]2NC(=O)[C@@H](Cc3ccccc3)NC(=O)[C@H](CC(=O)O)NC(=O)CNC(=O)[C@H](CCCNC(=N)N)NC2=O)C(=O)NCCOCCOCCOCCOCCC(=O)NCCCC[C@@H]2NC(=O)[C@@H](Cc3ccccc3)NC(=O)[C@H](CC(=O)O)NC(=O)CNC(=O)[C@H](CCCNC(=N)N)NC2=O)NC(=O)[C@@H](Cc2ccccc2)NC(=O)[C@H](CC(=O)O)NC(=O)CNC1=O` [indium-111 labelled], the tissue uptake was 1.79 ± 0.11 %ID/g (female athymic nude mice, muscle; intravenous, 3 µCi, 0.5 h, U-87 MG glioma xenograft).
With `CSCC[C@H](NC(=O)[C@H](CC(C)C)NC(=O)[C@H](Cc1c[nH]cn1)NC(=O)CNC(=O)[C@@H](NC(=O)[C@H](C)NC(=O)[C@H](Cc1c[nH]c2ccccc12)NC(=O)[C@H](CCC(N)=O)NC(=O)[C@H](CC(N)=O)NC(=O)CNC(=O)[C@H](Cc1ccc(O)cc1)NC(=O)[C@H](CCCNC(=N)N)NC(=O)[C@H](CCC(N)=O)NC(=O)[C@@H]1CCCN1C(=O)CN1CCN(CC(=O)O)CCN(CC(=O)O)CCN(CC(=O)O)CC1)C(C)C)C(N)=O` [indium-111 labelled] the tissue uptake was 2.8 ± 0.9 %ID/g (male Swiss nu/nu mice, PC-3 tumour, kidney; intravenous, 10 pmol, 24 h).
The tissue uptake of `N=C(N)NCCC[C@@H]1NC(=O)[C@H](CCCCNC(=O)CNC(=O)CNC(=O)CNC(=O)CC[C@H](NC(=O)CCOCCOCCOCCOCCNC(=O)CC[C@H](NC(=O)CN2CCN(CC(=O)O)CCN(CC(=O)O)CCN(CC(=O)O)CC2)C(=O)NCCOCCOCCOCCOCCC(=O)N[C@@H](CCC(=O)NCC(=O)NCC(=O)NCC(=O)NCCCC[C@@H]2NC(=O)[C@@H](Cc3ccccc3)NC(=O)[C@H](CC(=O)O)NC(=O)CNC(=O)[C@H](CCCNC(=N)N)NC2=O)C(=O)NCC(=O)NCC(=O)NCC(=O)NCCCC[C@@H]2NC(=O)[C@@H](Cc3ccccc3)NC(=O)[C@H](CC(=O)O)NC(=O)CNC(=O)[C@H](CCCNC(=N)N)NC2=O)C(=O)NCC(=O)NCC(=O)NCC(=O)NCCCC[C@@H]2NC(=O)[C@@H](Cc3ccccc3)NC(=O)[C@H](CC(=O)O)NC(=O)CNC(=O)[C@H](CCCNC(=N)N)NC2=O)NC(=O)[C@@H](Cc2ccccc2)NC(=O)[C@H](CC(=O)O)NC(=O)CNC1=O` [indium-111 labelled] is reported as 0.54 ± 0.22 %ID/g (athymic nude mice, female, U-87 MG glioma xenograft, spleen; intravenous, 3 µCi, 72 h).
The tissue uptake of `N=C(N)NCCC[C@@H]1NC(=O)[C@H](CCCCNC(=O)CNC(=O)CNC(=O)CNC(=O)CC[C@H](NC(=O)CNC(=O)CNC(=O)CNC(=O)[C@H](CCCCNC(=O)c2ccc(NN)nc2)NC(=O)c2ccc(NN)nc2)C(=O)NCC(=O)NCC(=O)NCC(=O)NCCCC[C@@H]2NC(=O)[C@@H](Cc3ccccc3)NC(=O)[C@H](CC(=O)O)NC(=O)CNC(=O)[C@H](CCCNC(=N)N)NC2=O)NC(=O)[C@@H](Cc2ccccc2)NC(=O)[C@H](CC(=O)O)NC(=O)CNC1=O` [technetium-99m labelled] is reported as 0.73 ± 0.15 %ID/g (female athymic nude mice, blood; intravenous, 0.1 MBq, 1 h, U-87 MG glioma xenograft).
For `N=C(N)NCCC[C@@H]1NC(=O)[C@H](CCCCNC(=O)CCOCCOCCOCCOCCNC(=O)CN2CCN(CC(=O)O)CCN(CC(=O)O)CCN(CC(=O)O)CC2)NC(=O)[C@@H](Cc2ccccc2)NC(=O)[C@H](CC(=O)O)NC(=O)CNC1=O` [indium-111 labelled], the tissue uptake was 0.63 ± 0.03 %ID/g (female athymic nude mice, blood; intravenous, 3 µCi, 1 h, U-87 MG glioma xenograft).
`N=C(N)NCCC[C@@H]1NC(=O)[C@H](CCCCNC(=O)CCOCCOCCOCCOCCNC(=O)CC[C@H](NC(=O)CCOCCOCCOCCOCCNC(=O)c2ccc(NN)nc2)C(=O)NCCOCCOCCOCCOCCC(=O)NCCCC[C@@H]2NC(=O)[C@@H](Cc3ccccc3)NC(=O)[C@H](CC(=O)O)NC(=O)CNC(=O)[C@H](CCCNC(=N)N)NC2=O)NC(=O)[C@@H](Cc2ccccc2)NC(=O)[C@H](CC(=O)O)NC(=O)CNC1=O` [technetium-99m labelled] gave a tissue uptake of 1.69 ± 0.46 %ID/g (female athymic nude mice, U-87 MG glioma xenograft, liver; intravenous, 2.5 µCi, 60 min).

Repeated from above:
`N=C(N)NCCC[C@@H]1NC(=O)[C@H](CCCCNC(=O)CCOCCOCCOCCOCCNC(=O)CC[C@H](NC(=O)CCOCCOCCOCCOCCNC(=O)c2ccc(NN)nc2)C(=O)NCCOCCOCCOCCOCCC(=O)NCCCC[C@@H]2NC(=O)[C@@H](Cc3ccccc3)NC(=O)[C@H](CC(=O)O)NC(=O)CNC(=O)[C@H](CCCNC(=N)N)NC2=O)NC(=O)[C@@H](Cc2ccccc2)NC(=O)[C@H](CC(=O)O)NC(=O)CNC1=O` [technetium-99m labelled] gave a tissue uptake of 1.69 ± 0.46 %ID/g (female athymic nude mice, U-87 MG glioma xenograft, liver; intravenous, 2.5 µCi, 60 min).
The tissue uptake of `CSCC[C@H](NC(=O)[C@H](CC(=O)O)NC(=O)[C@H](CO)NC(=O)[C@H](Cc1c[nH]cn1)NC(=O)[C@H](Cc1c[nH]c2ccccc12)NC(=O)CN1CCN(CC(=O)O)CCN(CC(=O)O)CCN(CC(=O)O)CC1)C(=O)N[C@@H](CCC(=O)O)C(=O)N[C@@H](Cc1c[nH]c2ccccc12)C(=O)N[C@@H](Cc1c[nH]c2ccccc12)C(=O)N[C@@H](Cc1ccc(O)cc1)C(=O)N[C@@H](CC(C)C)C(=O)N[C@@H](CC(C)C)C(=O)NCC(=O)N[C@@H](CCCCNC(=O)COCCOCCNC(=O)CCN1C(=O)C=CC1=O)C(=O)O` [copper-64 labelled] is reported as 1.27 %ID/g (gamma counting; nude mice bearing BGC-823 tumours, BGC-823 tumour; intravenous, 0.74 MBq (0.02 nmol), 4 h).
